Measurements collected from several papers.
Numbered parts are unrelated; each lists some results of a single study. Changes are numbered by the printed parent chain.

Set 1
Target: Interferon regulatory factor 7, full length, phosphomimetic (IRF7, Homo sapiens, UniProt Q92985, residues 1-503, S101K/S471D/S472D/S475D/S476D/S477D/S483D/S484D/S487D)
Method: protein-binding microarray
Form: double-stranded DNA, one strand shown
Sample: in vitro
Tested at: 250 nM
Notes: 60-bp whole probe
With: salmon DNA 0.4 mg/ml
Reference: random background probes
Direction: higher = stronger binding
All sequences stand within: GCCTAGCAC … GTCTTGATTCGCTTGACGCTGCTG
Residues (chain): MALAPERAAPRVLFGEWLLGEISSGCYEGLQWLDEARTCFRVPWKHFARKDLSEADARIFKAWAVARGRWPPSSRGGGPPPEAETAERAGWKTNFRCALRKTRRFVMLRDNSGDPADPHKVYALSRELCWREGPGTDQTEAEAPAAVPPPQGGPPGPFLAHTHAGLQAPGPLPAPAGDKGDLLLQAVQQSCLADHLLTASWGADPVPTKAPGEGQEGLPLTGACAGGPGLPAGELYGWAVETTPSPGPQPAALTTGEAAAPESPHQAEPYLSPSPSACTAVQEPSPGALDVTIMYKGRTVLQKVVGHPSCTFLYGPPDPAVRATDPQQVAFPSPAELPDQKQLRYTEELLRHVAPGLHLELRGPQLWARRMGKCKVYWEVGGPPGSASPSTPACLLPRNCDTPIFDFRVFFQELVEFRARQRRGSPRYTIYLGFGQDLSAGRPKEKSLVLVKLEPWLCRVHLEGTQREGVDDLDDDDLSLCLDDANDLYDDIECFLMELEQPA
With `TTAGGTTCACTTTTCCTTTAGTGCTAG` the log fluorescence was 3.88 z-score.
The log fluorescence of `TTAGATTGCGGGACTGGATTAGTGCTA` is reported as -0.309 z-score.
`GCGATTTGAGGAGCTCGCTCGTGCTAG` gave a log fluorescence of -0.0379 z-score.
`TCAGGACTCGGGTCTCCCACTGTGCTA` has a log fluorescence of 0.993 z-score.
With `GGGATTTTTAGTTAGAAAAAGTGCTAG` the log fluorescence was -0.0935 z-score.
With `TTAGGACTGGGTGTCGGTTAGTGCTAG` the log fluorescence was -0.348 z-score.
For `TAAGGTATCGGACTGGGTTAGTGCTAG`, the log fluorescence was 0.044 z-score.
With `TTAGATATCGGGTTGCGATTAGTGCTA` the log fluorescence was 0.327 z-score.

Set 2
Target: UDP-N-acetylglucosamine--peptide N-acetylglucosaminyltransferase 110 kDa subunit (OGT, Homo sapiens, UniProt O15294)
UniProt O15294, sequence (whole entry, looked up): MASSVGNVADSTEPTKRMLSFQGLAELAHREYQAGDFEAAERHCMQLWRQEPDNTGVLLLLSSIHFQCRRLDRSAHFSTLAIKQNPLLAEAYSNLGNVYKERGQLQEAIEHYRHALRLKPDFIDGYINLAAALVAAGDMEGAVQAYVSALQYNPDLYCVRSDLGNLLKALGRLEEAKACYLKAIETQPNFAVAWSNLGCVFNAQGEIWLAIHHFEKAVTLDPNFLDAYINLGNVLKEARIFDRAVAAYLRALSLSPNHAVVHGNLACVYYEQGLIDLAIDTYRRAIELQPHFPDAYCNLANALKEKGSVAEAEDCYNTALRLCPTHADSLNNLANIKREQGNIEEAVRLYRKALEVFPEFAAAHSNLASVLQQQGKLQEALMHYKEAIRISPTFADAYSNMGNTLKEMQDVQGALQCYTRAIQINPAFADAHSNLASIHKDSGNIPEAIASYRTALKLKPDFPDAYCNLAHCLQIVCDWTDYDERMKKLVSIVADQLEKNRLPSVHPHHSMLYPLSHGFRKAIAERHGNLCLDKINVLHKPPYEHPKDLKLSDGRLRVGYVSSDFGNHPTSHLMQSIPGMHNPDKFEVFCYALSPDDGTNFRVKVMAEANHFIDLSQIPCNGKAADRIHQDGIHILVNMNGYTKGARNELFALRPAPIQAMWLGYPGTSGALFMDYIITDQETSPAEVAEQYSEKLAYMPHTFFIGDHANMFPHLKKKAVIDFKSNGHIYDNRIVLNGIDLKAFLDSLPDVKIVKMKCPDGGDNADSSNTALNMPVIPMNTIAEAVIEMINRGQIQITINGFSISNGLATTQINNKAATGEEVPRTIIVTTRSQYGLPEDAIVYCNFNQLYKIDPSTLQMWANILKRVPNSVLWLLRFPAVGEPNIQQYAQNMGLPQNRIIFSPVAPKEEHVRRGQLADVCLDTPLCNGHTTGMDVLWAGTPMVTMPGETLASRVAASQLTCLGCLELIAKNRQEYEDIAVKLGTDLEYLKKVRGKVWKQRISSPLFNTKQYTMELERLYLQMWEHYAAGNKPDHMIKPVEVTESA
Read-out: binding
Method: phage display NGS
Form: peptide
Reference: input library
`GGGHVMHHYYDKHNP` — result for “minimum log2 enrichment ratio”: 1.31.
`HKTWHPHHMVQTPN` — result for “minimum log2 enrichment ratio”: 2.17.
Under “minimum log2 enrichment ratio”, `SHKPHRASMPSALQF` is recorded as 1.24.
`RVQIMPVYQIDIPSA` — result for “minimum log2 enrichment ratio”: 3.72.
For `QLHMLRQQHAHSGAT`, “minimum log2 enrichment ratio” read 2.57.
`HQSHYQHTSPAIIHK` — result for “minimum log2 enrichment ratio”: 2.28.
Under “minimum log2 enrichment ratio”, `HVRWHHSDAPYWTDI` is recorded as 2.45.
`IVTGRHPHTTQHYTH` — result for “minimum log2 enrichment ratio”: 2.41.
`HQLQIHHRSHLNDYP` — result for “minimum log2 enrichment ratio”: 2.33.
For `NSPFAPKYEITTAWH`, “minimum log2 enrichment ratio” read 5.39.
`VMGTPQYLPHYQIDV`: “minimum log2 enrichment ratio” 3.88.
`MEEYLPQYTIEVVPI`: “minimum log2 enrichment ratio” 1.38.
`QQIPSIMPMYQIVTP` — result for “minimum log2 enrichment ratio”: 3.55.
`HYIPHFPWQWDFDHH` — result for “minimum log2 enrichment ratio”: 3.01.
`YQNHTHHVYEVYHV`: “minimum log2 enrichment ratio” 1.51.
For `YQPYYPMYQIVRNNS`, “minimum log2 enrichment ratio” read 3.06.
`TDKHQHMHHVTHVA` — result for “minimum log2 enrichment ratio”: 3.68.
`HNYHNHRVQMEYRGE`: “minimum log2 enrichment ratio” 2.51.
For `NRYTETRHMHQVHHS`, “minimum log2 enrichment ratio” read 2.51.
`IVFAPQYQLQYTRSA` — result for “minimum log2 enrichment ratio”: 4.39.
`SHTHTQRDFHGIYSN` — result for “minimum log2 enrichment ratio”: 3.29.
`HQSPHHRTVEHQVT` — result for “minimum log2 enrichment ratio”: 2.32.
`QPQHHMWQHHAYDIK`: “minimum log2 enrichment ratio” 2.7.
`YDNMQYRPQYQIATH` — result for “minimum log2 enrichment ratio”: 3.07.
`NVRFPPMYQMVWTSR`: “minimum log2 enrichment ratio” 5.06.

Set 3
Target: inorganic phosphate, free oxyanion
Method: microfluidic competitive inhibition
Sample: in vitro, cell-free expressed
Tested at: not given
Notes: derived from inhibition constants, unchanged parent 615000 nM
Direction: lower = stronger binding
Parent: PafA, mature enzyme, eGFP fusion (Elizabethkingia meningoseptica, UniProt Q9KJX5); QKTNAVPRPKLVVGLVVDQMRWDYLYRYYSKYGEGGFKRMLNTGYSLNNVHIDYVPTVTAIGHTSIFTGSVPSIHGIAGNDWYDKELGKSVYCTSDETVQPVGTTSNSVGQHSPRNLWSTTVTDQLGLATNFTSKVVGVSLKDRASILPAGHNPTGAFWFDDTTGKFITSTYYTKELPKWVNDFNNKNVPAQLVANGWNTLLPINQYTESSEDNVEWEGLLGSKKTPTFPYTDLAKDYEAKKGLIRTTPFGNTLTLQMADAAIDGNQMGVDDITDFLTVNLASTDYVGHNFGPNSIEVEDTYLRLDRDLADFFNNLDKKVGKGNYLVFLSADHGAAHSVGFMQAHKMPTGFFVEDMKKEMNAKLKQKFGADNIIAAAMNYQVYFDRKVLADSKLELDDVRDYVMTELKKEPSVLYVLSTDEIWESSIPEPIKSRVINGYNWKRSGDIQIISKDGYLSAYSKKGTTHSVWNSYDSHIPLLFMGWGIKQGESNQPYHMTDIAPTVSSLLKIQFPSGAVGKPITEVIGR
`Q510V`: “phosphate dissociation constant” 430 µM.
`K224V` — result for “phosphate dissociation constant”: 610 µM.
`D420V` — result for “phosphate dissociation constant”: 619 µM.
`I373G`: “phosphate dissociation constant” 546 µM.
`N252G` — result for “phosphate dissociation constant”: 658 µM.
`D124G`: “phosphate dissociation constant” 533 µM.
Under “phosphate dissociation constant”, `I168V` is recorded as 620 µM.
For `D233V`, “phosphate dissociation constant” read 597 µM.
`V136G` — result for “phosphate dissociation constant”: 497 µM.
`N280G` — result for “phosphate dissociation constant”: 252 µM.
Under “phosphate dissociation constant”, `G33V` is recorded as 595 µM.
`K363V`: “phosphate dissociation constant” 695 µM.
`A515G` — result for “phosphate dissociation constant”: 598 µM.
`L281G`: “phosphate dissociation constant” 605 µM.
`V13G`: “phosphate dissociation constant” 498 µM.
For `I450V`, “phosphate dissociation constant” read 601 µM.
Under “phosphate dissociation constant”, `P154V` is recorded as 449 µM.
Under “phosphate dissociation constant”, `D401G` is recorded as 616 µM.
`A331V` — result for “phosphate dissociation constant”: 458 µM.
`D233G` — result for “phosphate dissociation constant”: 534 µM.
Under “phosphate dissociation constant”, `L202V` is recorded as 650 µM.
`K31G` — result for “phosphate dissociation constant”: 650 µM.
For `T226G`, “phosphate dissociation constant” read 526 µM.
`N314V` — result for “phosphate dissociation constant”: 628 µM.
For `S108G`, “phosphate dissociation constant” read 620 µM.

Further values, each from its own experiment
Parent: viral docking peptide; KKVKRRLFETREL; partner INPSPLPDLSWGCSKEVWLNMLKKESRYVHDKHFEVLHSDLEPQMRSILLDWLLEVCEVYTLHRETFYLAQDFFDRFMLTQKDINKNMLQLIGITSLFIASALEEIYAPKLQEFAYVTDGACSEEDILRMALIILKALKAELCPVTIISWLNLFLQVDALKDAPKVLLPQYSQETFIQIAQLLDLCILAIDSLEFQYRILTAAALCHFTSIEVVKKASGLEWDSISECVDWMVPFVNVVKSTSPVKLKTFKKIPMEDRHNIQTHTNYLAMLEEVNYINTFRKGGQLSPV
For `KKVKRRLLETREL [F8L]`, “normalised enrichment score” read 0.514 (CCNE2, cyclin fold, Cln2 fusion (human); yeast growth competition, sequencing; yeast; strong parent motif; reference: not given, higher = stronger binding).

A few entries again (set 1):
With `TTAGGTTCACTTTTCCTTTAGTGCTAG` the log fluorescence was 3.88 z-score.
With `TTAGGACTGGGTGTCGGTTAGTGCTAG` the log fluorescence was -0.348 z-score.
The log fluorescence of `TTAGATTGCGGGACTGGATTAGTGCTA` is reported as -0.309 z-score.
With `TTAGATATCGGGTTGCGATTAGTGCTA` the log fluorescence was 0.327 z-score.
`TCAGGACTCGGGTCTCCCACTGTGCTA` has a log fluorescence of 0.993 z-score.
